{"data": "Measured values pooled from the literature", "note": "Numbered parts are unrelated; each lists some results of a single study."}
{"data": "Series 1", "target": "Phosphate system positive regulatory protein PHO4, full length, GST-tagged (PHO4, Saccharomyces cerevisiae, UniProt P07270, residues 1-312)", "technique": "competition protein-binding microarray", "molecule type": "double-stranded DNA, one strand shown", "matrix": "in vitro", "tested at": "2 µM", "setting": "whole 60-bp probe, lowest competitor level", "together with": "Cbf1 competitor, 0.05 µM", "direction": "higher = stronger binding", "all sequences stand within": "… GTCTTGATTCGCTTGACGCTGCTG", "Residues (chain)": "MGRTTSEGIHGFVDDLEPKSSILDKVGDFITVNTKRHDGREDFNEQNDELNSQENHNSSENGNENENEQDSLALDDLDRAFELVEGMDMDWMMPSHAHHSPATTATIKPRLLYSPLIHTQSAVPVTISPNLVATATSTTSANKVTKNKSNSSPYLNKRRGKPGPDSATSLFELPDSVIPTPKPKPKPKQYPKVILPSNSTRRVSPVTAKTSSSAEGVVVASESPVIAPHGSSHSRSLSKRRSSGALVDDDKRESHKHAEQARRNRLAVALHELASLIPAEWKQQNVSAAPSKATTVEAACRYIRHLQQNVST"}
{"Sequence": "TAATCAAGCTTTCGGCACGTGGTGAGCCAAGTTGTG", "fluorescence intensity [a.u.]": 19100}
{"Sequence": "TGCGCAACAACTTGCACCGTGGGTGTATGTCTAGAA", "fluorescence intensity [a.u.]": 7600}
{"Sequence": "CATACCCAACCTTTTCACGTGTCGTAAGATATTTGT", "fluorescence intensity [a.u.]": 15200}
{"Sequence": "TTACAGAGATACCAACACGTCCCATTGCAGTACATC", "fluorescence intensity [a.u.]": 6070}
{"Sequence": "ACCAACAATTAAAAGCACGTGATGGGTTCCAGGACT", "fluorescence intensity [a.u.]": 17700}
{"Sequence": "CTTTCCCGATCTTGGCCAGTGGGTGTAGCACATTTG", "fluorescence intensity [a.u.]": 4400}
{"Sequence": "TGTAACAAGGAACAACGCGTGCTAACAAGCGGTAAT", "fluorescence intensity [a.u.]": 11900}
{"Sequence": "AATCGTAGGATAGGTTACATGATAATTGCAATAGAT", "fluorescence intensity [a.u.]": 3430}
{"Sequence": "TTGGATCTGACTCCTCACGTGGCAAATCTAAAATTG", "fluorescence intensity [a.u.]": 15800}
{"Sequence": "ACACCCGTACACCACCATGTGCGTTATTGAAAAACT", "fluorescence intensity [a.u.]": 13700}
{"data": "Series 2", "target": "Interferon regulatory factor 7, full length, phosphomimetic (IRF7, Homo sapiens, UniProt Q92985, residues 1-503, S471D/S472D/S475D/S476D/S477D/S483D/S484D/S487D)", "technique": "protein-binding microarray", "molecule type": "double-stranded DNA, one strand shown", "matrix": "in vitro", "tested at": "2200 nM top", "setting": "60-bp whole probe", "together with": "salmon DNA 0.4 mg/ml", "relative to": "random background probes", "direction": "higher = stronger binding", "all sequences stand within": "GCCTAGCAC … GTCTTGATTCGCTTGACGCTGCTG", "Construct (chain)": "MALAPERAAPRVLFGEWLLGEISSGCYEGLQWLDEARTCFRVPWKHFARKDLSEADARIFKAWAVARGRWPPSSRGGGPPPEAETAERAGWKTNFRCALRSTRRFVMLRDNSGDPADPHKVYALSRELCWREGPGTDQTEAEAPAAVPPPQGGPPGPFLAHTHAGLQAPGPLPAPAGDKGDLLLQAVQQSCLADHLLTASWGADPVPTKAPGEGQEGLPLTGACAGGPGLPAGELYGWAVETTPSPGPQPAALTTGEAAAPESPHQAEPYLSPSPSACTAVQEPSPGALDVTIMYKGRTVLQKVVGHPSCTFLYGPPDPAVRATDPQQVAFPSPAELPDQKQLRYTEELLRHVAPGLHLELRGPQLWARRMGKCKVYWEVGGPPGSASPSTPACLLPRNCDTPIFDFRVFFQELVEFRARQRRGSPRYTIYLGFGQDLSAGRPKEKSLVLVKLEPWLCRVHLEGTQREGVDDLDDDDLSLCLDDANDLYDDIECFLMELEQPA"}
{"Sequence": "TTAGGTTTCGACTATCCGTTAGTGCTA", "fitted relative affinity [z-score]": 3.58}
{"Sequence": "TTAGGTCTCCTTTACCTTTAGTGCTAG", "fitted relative affinity [z-score]": 1.16}
{"Sequence": "TTAGATTTCAGGTATCGATTAGTGCTA", "fitted relative affinity [z-score]": 0.994}
{"Sequence": "TCTCCTACAGGTTCTCTGAGAGTGCTA", "fitted relative affinity [z-score]": 0.592}
{"Sequence": "GACGGTCTCGGACGGGGGACGTGCTAG", "fitted relative affinity [z-score]": 0.217}
{"Sequence": "TTAGGTTTCGGTATCAGTTAGTGCTAG", "fitted relative affinity [z-score]": 6.65}
{"Sequence": "GACGGTTTCGACTATAGGGACGTGCTA", "fitted relative affinity [z-score]": 2.46}
{"data": "Series 3", "target": "Sal-like protein 4, full length isoform B (SALL4, Homo sapiens, UniProt Q9UJQ4-2, residues 1-616)", "technique": "universal PBM", "molecule type": "double-stranded DNA, one strand shown", "matrix": "in vitro", "tested at": "not given", "setting": "8-mer, flanks averaged, mean of replicates", "direction": "higher = stronger binding", "Target sequence (chain)": "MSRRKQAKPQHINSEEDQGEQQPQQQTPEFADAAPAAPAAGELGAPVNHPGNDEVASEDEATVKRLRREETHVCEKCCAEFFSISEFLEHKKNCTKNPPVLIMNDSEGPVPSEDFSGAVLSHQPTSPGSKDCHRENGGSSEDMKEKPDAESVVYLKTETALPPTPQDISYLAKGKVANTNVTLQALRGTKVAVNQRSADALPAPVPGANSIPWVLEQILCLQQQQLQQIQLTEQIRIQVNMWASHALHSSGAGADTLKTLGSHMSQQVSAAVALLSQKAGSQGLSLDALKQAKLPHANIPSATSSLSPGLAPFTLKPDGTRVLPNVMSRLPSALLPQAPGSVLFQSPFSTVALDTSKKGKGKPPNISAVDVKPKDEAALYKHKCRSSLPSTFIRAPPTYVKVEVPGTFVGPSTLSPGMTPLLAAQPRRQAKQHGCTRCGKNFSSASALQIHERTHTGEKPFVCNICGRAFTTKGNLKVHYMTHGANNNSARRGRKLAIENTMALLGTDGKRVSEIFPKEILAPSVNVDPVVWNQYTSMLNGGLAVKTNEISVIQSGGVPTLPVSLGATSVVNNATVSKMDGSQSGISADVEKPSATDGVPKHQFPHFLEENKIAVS"}
{"Sequence": "AAGATTGG", "E-score": 0.0823}
{"Sequence": "TCCCCACA", "E-score": -0.0984}
{"Sequence": "GCCTGCGC", "E-score": -0.34}
{"Sequence": "GAGCATGC", "E-score": -0.114}
{"Sequence": "CCCTTTGC", "E-score": -0.0877}
{"Sequence": "GAACAACA", "E-score": -0.012}
{"Sequence": "GCGACCCA", "E-score": -0.304}
{"Sequence": "ATTGGGTG", "E-score": 0.0262}
{"data": "Mixed results"}
{"Molecule": "PhoQ, residues 284 288 289 292 302 303 SSTMSV", "target": "PhoP, residues 12 14 15 18 19 LHHSG (Escherichia coli, UniProt P23836)", "assay": "Sort-seq, item: YFP reporter", "system": "E. coli", "conditions": "PhoQ-PhoP variant library, together with: 10 µM Mg2+", "scale": "relative to: high Mg2+ state, higher = stronger signaling", "endpoint": "fold induction", "result": 10.8}
{"note": "For quick reference, copied from above (series 3):"}
{"Sequence": "CCCTTTGC", "E-score": -0.0877}
{"Sequence": "GAACAACA", "E-score": -0.012}
